# Measurements collected from several papers.
# A part holds a random share of what one study measured.

# Study 1
# Target: Histone acetyltransferase KAT6A, winged helix 1, GST fusion (KAT6A, Homo sapiens, UniProt Q92794, residues 1-85)
# Technique: protein binding microarray
# Form: double-stranded DNA, one strand shown
# Medium: in vitro
# Tested at: not given
# Notes: 8-mer, flanks averaged, mean of 2 arrays, mostly near background
# Relative to: not given
# Reading: higher = stronger binding
# Construct (chain): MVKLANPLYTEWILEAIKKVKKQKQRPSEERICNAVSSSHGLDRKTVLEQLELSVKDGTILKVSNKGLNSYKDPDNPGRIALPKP
Strand,E-score
ATAAACGG,0.153
CCGCCCAA,0.121
CACCGTAA,0.0617
AGTGTGGG,-0.146
CCGCCGAA,0.381
AATAACCA,-0.337
CCCGATCA,0.128
CGTCCTAA,-0.128
ATGGAAAT,-0.148
AGTGAAAT,-0.316
ACTTGTGG,-0.171
AAGCGATG,0.112
CCGGCTAC,0.249
ACAATTGG,-0.229
CCCAGACA,-0.243
ATTAGGGA,-0.123
AAATGGAG,-0.0958
CGGACACG,0.274
ATGGGTTC,-0.185

# Study 2
# Target: RNA binding protein fox-1 homolog 2, RRM domain, GST-SBP tag (RBFOX2, Homo sapiens, UniProt O43251-10, residues 100-194)
# Technique: RNA Bind-n-Seq
# Form: RNA
# Medium: in vitro
# Tested at: 365 nM
# Notes: natural RNA segment, single round, ends assumed
# Relative to: no-protein control
# Reading: higher = stronger binding
# All sequences stand within: GGGAGUUCUACAGUCCGACGAUC … UGGAAUUCUCGGGUGCCAA
# Target sequence (chain): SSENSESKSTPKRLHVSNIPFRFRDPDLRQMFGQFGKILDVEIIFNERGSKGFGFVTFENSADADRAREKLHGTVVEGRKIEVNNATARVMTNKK
Strand,RBNS enrichment (R)
GUGGGGUAAGUGCCUCCAGGAAGGCAGGCAGCCUGCCUUAGACUUGCAGCCCGGCUGUGGGAAUGAAUCAUUGGAGUAAUAAACUACAGUGGUUGAUCCACAUGUGCUCG,0.347
GCCCGCCCGGUGCCUCCCCCUGCUCCUGCAUGGCGGGACGGGCAGCGCCUCCUGCGGCCCCUCCAGUGCUGUCCCUCCGCUGUCUAGCAGCCCUAGGGGCGUGUCAGCCG,0.796
ACCCUAAUCUUCGCAGCCGCUUGGCCCUGAGAGAUGAUGCCCUGUACAGGAGAUCCCUUCUCACCCUCCAGCUCUGCAAACCGUGUCUCAUGUUUCACAGCGUUCCUGUU,0.565
AACUUGUAUAUCAUGCUCCCUCAAAGAAUGUGCGAUAGAUUAUUUUAAGACCAUGAUAAUAGAGUAAAAAGGAAAGAAAGCCAGAAAUUACAAUUUUGGAUGCUAAAAAG,1.39
AAAGGUAGUGGUCACUGGGUCUCACAUGUUUAGCUUGCCUGCCUGGUAGGACUGGCUUCUGGCAGGGACAGGGCCUAUCCUAAGUACCUUCACCCAGUAUCACAAAGAUG,0.845
AACCUAGGGGGUUGAUACAAUGUUACUGUAAUUGUGUGGGUGGGUGUCAUCCUUUGUGACAUUGUUACCCUGAGGUAUACUCCCUGCAGUGAGCUGGUCUUCCUGAAGUG,0.789
ACCUCCCCAUUGGGCUGAUGAGAAAAUACACGCAGGCCUAGCAUGGUGCCUGCCACCAUGGUGGGAUCCAGUAUGUUUUAUAAAUCUGAAUGAGUAAAUGGCUCACCAAU,1.05
UGCCACUUGUAAAUGUUUUGCAGCCAGCACCUGAGGACUUCUUAUACAGUCAUAAAGCCACCUAGAGCGAUUUGUUGUUGAGCAACGCCGCCCCUUCCCUCCAGGAUCAG,0.557

# Study 3
# Target: Sal-like protein 4, full length isoform B (SALL4, Homo sapiens, UniProt Q9UJQ4-2, residues 1-616)
# Technique: universal PBM
# Form: double-stranded DNA, one strand shown
# Medium: in vitro
# Tested at: not given
# Notes: 8-mer, flanks averaged, mean of replicates
# Reading: higher = stronger binding
# Construct (chain): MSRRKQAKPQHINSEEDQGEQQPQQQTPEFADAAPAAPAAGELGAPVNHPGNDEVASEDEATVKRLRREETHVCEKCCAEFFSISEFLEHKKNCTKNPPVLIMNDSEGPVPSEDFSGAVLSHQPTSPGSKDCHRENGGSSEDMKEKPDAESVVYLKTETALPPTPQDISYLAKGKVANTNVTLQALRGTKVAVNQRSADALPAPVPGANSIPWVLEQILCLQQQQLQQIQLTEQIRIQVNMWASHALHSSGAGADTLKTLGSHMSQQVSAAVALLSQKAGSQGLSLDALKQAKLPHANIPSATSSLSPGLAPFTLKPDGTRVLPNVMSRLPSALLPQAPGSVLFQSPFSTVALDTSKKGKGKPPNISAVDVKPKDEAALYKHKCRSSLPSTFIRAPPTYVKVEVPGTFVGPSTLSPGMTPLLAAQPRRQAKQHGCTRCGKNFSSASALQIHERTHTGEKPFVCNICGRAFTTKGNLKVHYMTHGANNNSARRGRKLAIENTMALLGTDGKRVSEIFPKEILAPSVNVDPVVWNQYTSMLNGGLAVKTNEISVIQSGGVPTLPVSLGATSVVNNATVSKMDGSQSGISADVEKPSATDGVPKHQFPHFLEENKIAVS
Strand,E-score
CATTTATC,0.268
AAATGCTG,0.0135
AAGTGATT,0.214
CACGGAAA,-0.0446
GTTTTGGA,0.114
AACACAAG,0.0666
GCCATCAA,-0.0692
GAAAGTGC,-0.117
AAACGTGC,0.0045
CCATCTCC,0.036
GTACGAAA,0.12
ACGAAGAG,0.109
ACATGTAG,0.183
CTGAGGCA,-0.136
AAAGTAAG,0.154
AGGCCGCA,-0.221
CTTGAGTA,0
CTTGCGTA,0.00916
AGATCTAC,0.114

# Study 4
# Target: Ras GTPase-activating protein-binding protein 1, C-terminal RGG region (G3BP1, Homo sapiens, UniProt Q13283)
# Chain of UniProt Q13283 (whole entry, looked up): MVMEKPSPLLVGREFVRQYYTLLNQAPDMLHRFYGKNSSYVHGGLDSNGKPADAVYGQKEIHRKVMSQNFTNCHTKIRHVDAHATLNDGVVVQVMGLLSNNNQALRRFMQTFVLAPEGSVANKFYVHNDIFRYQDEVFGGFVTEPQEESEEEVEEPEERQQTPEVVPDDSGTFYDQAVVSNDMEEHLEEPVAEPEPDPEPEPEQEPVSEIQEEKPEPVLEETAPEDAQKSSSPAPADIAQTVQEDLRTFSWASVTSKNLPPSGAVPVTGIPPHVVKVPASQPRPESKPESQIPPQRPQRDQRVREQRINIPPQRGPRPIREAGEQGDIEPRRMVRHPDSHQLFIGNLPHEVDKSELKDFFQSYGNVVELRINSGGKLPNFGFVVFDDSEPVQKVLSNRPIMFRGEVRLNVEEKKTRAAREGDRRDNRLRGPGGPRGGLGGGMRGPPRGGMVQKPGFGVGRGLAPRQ
# Technique: RNA Bind-n-Seq
# Form: RNA
# Medium: in vitro
# Tested at: 1 µM
# Notes: whole 134-nt RNA, ends assumed
# With: 150 mM KCl
# Relative to: input library
# Reading: higher = stronger binding
# All sequences stand within: GGGAGUUCUACAGUCCGACGAUC … UGGAAUUCUCGGGUGUCAAGG
Strand,log2 enrichment
UCAAGUCCUGUGCUACACAUCGUAUGUACCGAAUCGGAAAAAGGUGGAAAAAGGAAAGUAUUAUGUUACGCCGUUCGGAUCUGCACUUCC,-1.4
GUCCUGUGCUACACAUCGUAUGUACCGAAUCGGGCCCCCGGGGCCCCCGGGCCCCCGGGAAAGUAUUAUGUUACGCCGUUCGGAUCUGCA,-2.05
CCUGUGCUACACAUCGUAUGUACCGAAUCGGGGUUUUUUGGUUUUUUGGGUUUUUUGGGGAAAGUAUUAUGUUACGCCGUUCGGAUCUGC,-1.8
GUCCUGUGCUACACAUCGUAUGUACCGAAUCGGGAAAAAGGGAAAAAGGGAAAAAGGGGAAAGUAUUAUGUUACGCCGUUCGGAUCUGCA,-0.222
CACAGACAAUACGCACCCACACAGACACAGAGGGAAGGGGUUGGGAUGGGGACAGGGUGCACAGCAGGGCGGGGUAGGACCCCAGCCCCU,-0.191
UCCUGUGCUACACAUCGUAUGUACCGAAUCGGUUUUUUGGUUUUUUGGGUUUUUUGGGGAAAGUAUUAUGUUACGCCGUUCGGAUCUGCA,-1.27
CUCAAGUCCUGUGCUACACAUCGUAUGUACCGAAUCGGAGGUUUUUGGAAAGGAAAGUAUUAUGUUACGCCGUUCGGAUCUGCACUUCCA,-1.27
GUCCUGUGCUACACAUCGUAUGUACCGAAUCGGGCCCCCGGGCCCCCGGCCCCCGGGGAAAGUAUUAUGUUACGCCGUUCGGAUCUGCAC,-1.48
UUAGAAGAAGUGGAAAGGAAAAAACGCCAAAGGGAGUUGGAAAUUGAAGAACGAGAACGGCGUAGAGAGGAAGAGAGAAGACUUGGCGAU,-0.295

# Study 5
# Target: Interferon regulatory factor 5, full length, phosphomimetic (IRF5, Homo sapiens, UniProt Q13568-2, residues 1-514, S451D/S453D/S456D/S462D)
# Technique: protein-binding microarray
# Form: double-stranded DNA, one strand shown
# Medium: in vitro
# Tested at: 940 nM top
# Notes: 60-bp whole probe
# With: salmon DNA 0.4 mg/ml
# Relative to: random background probes
# Reading: higher = stronger binding
# All sequences stand within: GCCTAGCAC … GTCTTGATTCGCTTGACGCTGCTG
Strand,fitted relative affinity
GACGGTATCAGACTGGAGACGTGCTAG,0.232 z-score
TTAGATCTCAGTATCGTTTAGTGCTAG,2.72 z-score
TTAGGACTGGGACTGGGTGAGTGCTAG,-0.335 z-score
GACGGTTTCGACTGTCGGGACGTGCTA,8.38 z-score
GACGATTTCAGTATGGAGACGTGCTAG,-0.0539 z-score
GTGTTACTAAAATTTCATGAAGTGCTA,-0.162 z-score
GACGATATCGGGTTTCGAGACGTGCTA,2.09 z-score
TTAGGTATCGGACTTGGTTAGTGCTAG,2.8 z-score
GACGGTAACCTTCTCCTGACGTGCTAG,0.167 z-score
GACGATTTCAGTATTGAGACGTGCTAG,0.261 z-score

# Mixed results
Sequence,organism,test,system,conditions,how to read,endpoint,value
LLRRLQDVANDRG,Saccharomyces cerevisiae,"peptide binding, yeast competitive growth sequencing","peptide, cyclin E2-Cln2 fusion",library 2,direction not given,enrichment score,-1
